Assay results pooled from the literature.
Parts stem from different laboratories: compare values within a part only.
Chain of UniProt Q9UBS0 (whole entry, looked up): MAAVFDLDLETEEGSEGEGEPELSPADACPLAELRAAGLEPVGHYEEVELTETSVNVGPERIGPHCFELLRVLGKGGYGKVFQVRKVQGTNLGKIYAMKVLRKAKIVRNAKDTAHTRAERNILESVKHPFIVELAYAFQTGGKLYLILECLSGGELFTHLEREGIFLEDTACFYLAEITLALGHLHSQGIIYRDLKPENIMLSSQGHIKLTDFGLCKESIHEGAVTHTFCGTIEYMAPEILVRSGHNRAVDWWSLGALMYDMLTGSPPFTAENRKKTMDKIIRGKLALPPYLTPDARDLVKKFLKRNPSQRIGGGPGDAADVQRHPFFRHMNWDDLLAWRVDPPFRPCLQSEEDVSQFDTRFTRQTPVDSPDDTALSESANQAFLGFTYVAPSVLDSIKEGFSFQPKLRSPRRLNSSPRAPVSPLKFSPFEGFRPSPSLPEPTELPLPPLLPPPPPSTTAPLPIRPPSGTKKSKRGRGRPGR
Chain of UniProt P54753 (whole entry, looked up): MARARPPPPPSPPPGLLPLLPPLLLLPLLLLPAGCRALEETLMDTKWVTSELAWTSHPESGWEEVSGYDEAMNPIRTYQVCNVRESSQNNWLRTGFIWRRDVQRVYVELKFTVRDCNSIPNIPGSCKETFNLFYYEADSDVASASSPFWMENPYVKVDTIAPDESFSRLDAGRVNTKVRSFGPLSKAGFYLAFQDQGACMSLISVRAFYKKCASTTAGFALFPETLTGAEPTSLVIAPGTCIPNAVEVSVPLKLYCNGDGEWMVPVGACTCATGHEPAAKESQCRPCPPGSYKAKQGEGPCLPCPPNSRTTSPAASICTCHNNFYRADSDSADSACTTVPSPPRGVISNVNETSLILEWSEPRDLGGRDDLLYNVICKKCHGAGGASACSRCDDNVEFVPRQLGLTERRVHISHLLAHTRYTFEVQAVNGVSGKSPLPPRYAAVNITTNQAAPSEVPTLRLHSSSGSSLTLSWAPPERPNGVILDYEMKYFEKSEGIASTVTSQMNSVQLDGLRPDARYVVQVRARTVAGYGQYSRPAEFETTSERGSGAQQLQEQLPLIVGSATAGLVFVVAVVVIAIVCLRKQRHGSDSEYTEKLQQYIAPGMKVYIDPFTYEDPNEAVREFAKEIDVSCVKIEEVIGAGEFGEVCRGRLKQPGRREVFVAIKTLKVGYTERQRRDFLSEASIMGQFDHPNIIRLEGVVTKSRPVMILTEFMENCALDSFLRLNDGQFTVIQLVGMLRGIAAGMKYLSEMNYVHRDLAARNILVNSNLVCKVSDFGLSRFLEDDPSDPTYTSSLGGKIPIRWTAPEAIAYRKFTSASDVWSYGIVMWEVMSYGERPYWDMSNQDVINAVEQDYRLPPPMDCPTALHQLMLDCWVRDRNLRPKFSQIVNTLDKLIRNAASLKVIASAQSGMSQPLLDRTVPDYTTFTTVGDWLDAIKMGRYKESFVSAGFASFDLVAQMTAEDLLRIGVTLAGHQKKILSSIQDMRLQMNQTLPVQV
Chain of UniProt Q59H18 (whole entry, looked up): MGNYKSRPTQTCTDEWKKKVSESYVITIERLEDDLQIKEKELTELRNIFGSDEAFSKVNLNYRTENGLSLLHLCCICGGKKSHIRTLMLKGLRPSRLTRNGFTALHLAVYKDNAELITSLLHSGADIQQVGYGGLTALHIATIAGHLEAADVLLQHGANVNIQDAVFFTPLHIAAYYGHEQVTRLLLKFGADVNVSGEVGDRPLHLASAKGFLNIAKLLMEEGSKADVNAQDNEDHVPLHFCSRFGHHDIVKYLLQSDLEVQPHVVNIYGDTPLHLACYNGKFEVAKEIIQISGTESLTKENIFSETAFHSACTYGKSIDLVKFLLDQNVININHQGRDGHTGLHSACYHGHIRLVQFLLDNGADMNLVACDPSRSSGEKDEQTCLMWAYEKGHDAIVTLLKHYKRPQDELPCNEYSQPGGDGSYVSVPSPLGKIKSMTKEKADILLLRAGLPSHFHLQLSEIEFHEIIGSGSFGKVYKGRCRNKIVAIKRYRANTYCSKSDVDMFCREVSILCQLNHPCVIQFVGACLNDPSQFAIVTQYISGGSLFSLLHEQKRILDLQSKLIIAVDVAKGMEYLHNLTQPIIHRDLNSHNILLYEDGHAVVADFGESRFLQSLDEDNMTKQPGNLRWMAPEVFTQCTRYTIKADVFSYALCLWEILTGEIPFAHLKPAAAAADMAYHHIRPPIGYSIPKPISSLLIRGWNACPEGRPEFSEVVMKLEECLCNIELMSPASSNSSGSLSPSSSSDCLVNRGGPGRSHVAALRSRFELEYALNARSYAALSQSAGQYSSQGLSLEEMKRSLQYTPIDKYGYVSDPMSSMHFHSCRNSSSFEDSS
Chain of UniProt P37023 (whole entry, looked up): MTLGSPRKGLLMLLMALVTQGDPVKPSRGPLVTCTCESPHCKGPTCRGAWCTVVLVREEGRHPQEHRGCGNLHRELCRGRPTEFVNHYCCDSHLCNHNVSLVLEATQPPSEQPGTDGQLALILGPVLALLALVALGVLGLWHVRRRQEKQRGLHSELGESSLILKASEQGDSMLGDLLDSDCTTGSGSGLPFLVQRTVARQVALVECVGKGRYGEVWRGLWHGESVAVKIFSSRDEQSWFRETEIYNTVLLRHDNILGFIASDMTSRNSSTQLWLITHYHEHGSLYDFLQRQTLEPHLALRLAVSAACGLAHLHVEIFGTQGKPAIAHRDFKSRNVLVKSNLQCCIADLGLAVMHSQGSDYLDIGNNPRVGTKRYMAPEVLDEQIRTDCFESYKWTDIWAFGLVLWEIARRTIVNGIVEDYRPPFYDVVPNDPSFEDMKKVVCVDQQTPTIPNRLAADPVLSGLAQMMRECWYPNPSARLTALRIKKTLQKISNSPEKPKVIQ
Chain of UniProt O00506 (whole entry, looked up): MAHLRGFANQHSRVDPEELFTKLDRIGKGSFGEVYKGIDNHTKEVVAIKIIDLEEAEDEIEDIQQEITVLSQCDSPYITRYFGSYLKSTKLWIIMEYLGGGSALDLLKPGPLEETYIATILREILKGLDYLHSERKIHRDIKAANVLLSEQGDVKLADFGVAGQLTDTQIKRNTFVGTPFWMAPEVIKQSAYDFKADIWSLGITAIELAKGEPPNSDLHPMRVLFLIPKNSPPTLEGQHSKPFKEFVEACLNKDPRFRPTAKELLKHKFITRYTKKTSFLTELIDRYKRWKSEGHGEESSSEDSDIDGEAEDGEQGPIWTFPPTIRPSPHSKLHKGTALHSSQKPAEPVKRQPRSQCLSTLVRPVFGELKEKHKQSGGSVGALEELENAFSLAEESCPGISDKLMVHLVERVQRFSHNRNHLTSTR
Chain of UniProt Q8IW41 (whole entry, looked up): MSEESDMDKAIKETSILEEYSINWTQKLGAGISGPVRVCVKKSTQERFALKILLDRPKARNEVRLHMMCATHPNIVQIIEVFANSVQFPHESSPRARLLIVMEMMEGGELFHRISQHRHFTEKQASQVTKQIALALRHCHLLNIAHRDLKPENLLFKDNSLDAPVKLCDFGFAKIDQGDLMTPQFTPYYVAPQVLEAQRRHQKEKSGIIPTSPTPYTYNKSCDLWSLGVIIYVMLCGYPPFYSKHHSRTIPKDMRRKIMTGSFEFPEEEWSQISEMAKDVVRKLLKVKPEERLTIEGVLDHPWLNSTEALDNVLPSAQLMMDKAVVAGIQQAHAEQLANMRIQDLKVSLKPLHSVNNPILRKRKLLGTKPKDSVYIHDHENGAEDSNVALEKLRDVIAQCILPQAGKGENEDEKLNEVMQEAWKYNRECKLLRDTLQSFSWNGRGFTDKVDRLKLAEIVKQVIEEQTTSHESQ

Block 1
Structure (SMILES): O=C1NC(c2ccccn2)Sc2ccccc21 (stereo not shown)
Method: competition with immobilised ligand
Tested at: 1 µM
Endpoint: remaining binding
Ribosomal protein S6 kinase alpha-3, C-terminal kinase domain (RPS6KA3, Homo sapiens, UniProt P51812); cell-free assay: 78%
TNNI3K (Homo sapiens, UniProt Q59H18); cell-free assay: 87%
Myosin-IIIb (MYO3B, Homo sapiens, UniProt Q8WXR4); binding: 96%
MAPKAPK5 (Homo sapiens, UniProt Q8IW41); cell-free assay: 73%
EGFR (Homo sapiens, UniProt P00533, L858R/T790M); cell-free assay: 100%
Macrophage colony-stimulating factor 1 receptor, autoinhibited (CSF1R, Homo sapiens, UniProt P07333); cell-free assay: 91%
STK32A (Homo sapiens, UniProt Q8WU08); cell-free assay: 78%
PIK3C3 (Homo sapiens, UniProt Q8NEB9); cell-free assay: 99%
KDR (Homo sapiens, UniProt P35968); cell-free assay: 82%

Block 2
Compound: CN1CCN(C(=O)c2ccc(NC(=O)Nc3ccc(N(C)c4ccnc(Nc5ccc(CS(C)(=O)=O)cc5)n4)cc3)cc2)CC1
Read-out: binding
Tested at: 1 µM
Endpoint: remaining binding
STK25 (Homo sapiens, UniProt O00506); competition with immobilised ligand: 83%
MYLK3 (Homo sapiens, UniProt Q32MK0); competition with immobilised ligand: 86%
PRKD2 (Homo sapiens, UniProt Q9BZL6): 100%
ALK (Homo sapiens, UniProt Q9UM73): 76%
PTK2B (Homo sapiens, UniProt Q14289): 20%
TSSK3 (Homo sapiens, UniProt Q96PN8): 75%
LATS2 (Homo sapiens, UniProt Q9NRM7): 59%
PIK3CA (Homo sapiens, UniProt P42336): 98%
PIKFYVE (Homo sapiens, UniProt Q9Y2I7): 100%
CDC42BPB (Homo sapiens, UniProt Q9Y5S2); competition with immobilised ligand: 86%

Block 3
Target: Diamine acetyltransferase 1 (Homo sapiens, UniProt P21673)
Action: inhibitor
Tested at: 10 µM
Baseline: control
Endpoint: remaining activity
Target sequence (P21673 1-171): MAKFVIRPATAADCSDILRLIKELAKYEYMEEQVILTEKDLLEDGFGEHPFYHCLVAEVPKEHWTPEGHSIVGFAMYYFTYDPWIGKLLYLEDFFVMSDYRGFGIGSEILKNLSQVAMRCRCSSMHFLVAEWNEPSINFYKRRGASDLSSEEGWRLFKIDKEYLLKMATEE
Oc1cc(O)c2c(c1)O[C@H](c1ccc(O)c(O)c1)[C@H](O)[C@H]2c1c(O)cc(O)c2c1O[C@H](c1ccc(O)c(O)c1)[C@H](O)[C@H]2c1c(O)cc(O)c2c1O[C@H](c1ccc(O)c(O)c1)[C@H](O)C2: 86.9%
Oc1cc(O)c2c(c1)OC(c1ccc(O)c(O)c1)C(OC1(c3ccc(O)c(O)c3)Oc3cc(O)cc(O)c3C(O)C1O)C2 (stereo not shown): 90.3%
CC1(C)CC[C@]2(C(=O)O[C@@H]3O[C@H](CO)[C@@H](O)[C@H](O)[C@H]3O)CC[C@]3(C)C(=CC[C@@H]4[C@@]5(C)CC[C@H](O[C@@H]6O[C@H](C(=O)O)[C@@H](O)[C@H](O)[C@H]6O)C(C)(C)[C@@H]5CC[C@]43C)[C@@H]2C1: 97.3%
CCCCCCCCCCCCCCCc1cccc(O)c1C(=O)O: 112%
CC1=C(C=O)C(C)(C)C[C@H](O[C@@H]2O[C@H](CO)[C@@H](O)[C@H](O)[C@H]2O)C1: 91.4%
COc1ccc(C=O)c(O)c1: 95.8%
CC(O)(CC(=O)O)CC(=O)O: 77.8%
OC[C@H]1O[C@H](OC[C@H]2O[C@H](O[C@]3(CO)O[C@H](CO)[C@@H](O)[C@@H]3O)[C@H](O)[C@@H](O)[C@@H]2O)[C@H](O)[C@@H](O)[C@H]1O: 103%

Block 4
SMILES: COc1cc2ncnc(Nc3ccc(OCc4ccccc4)cc3)c2cc1OC
Read-out: enzyme activity
Action: inhibitor
Tested at: 0.5 µM
Baseline: control
Endpoint: remaining activity
CSNK1E (Homo sapiens, UniProt P49674): 98.4%
TEC (Homo sapiens, UniProt P42680): 106%
PIM1 (Homo sapiens, UniProt P11309): 102%
PAK6 (Homo sapiens, UniProt Q9NQU5): 95.4%
MELK (Homo sapiens, UniProt Q14680): 102%
ERBB2 (Homo sapiens, UniProt P04626): 42.6%
JAK1 (Homo sapiens, UniProt P23458): 101%
EPHA2 (Homo sapiens, UniProt P29317): 106%
JAK2 (Homo sapiens, UniProt O60674): 94.3%
IGF1R (Homo sapiens, UniProt P08069): 102%
PRKCQ (Homo sapiens, UniProt Q04759): 102%
ACVRL1 (Homo sapiens, UniProt P37023): 102%
RPS6KB2 (Homo sapiens, UniProt Q9UBS0): 108%
PRKCZ (Homo sapiens, UniProt Q05513): 113%
CAMKK1 (Homo sapiens, UniProt Q8N5S9): 126%
SIK2 (Homo sapiens, UniProt Q9H0K1): 73.7%
MARK1 (Homo sapiens, UniProt Q9P0L2): 103%
Cyclin-dependent kinase 5, with p35 (CDK5, Homo sapiens, UniProt Q00535): 103%
PAK4 (Homo sapiens, UniProt O96013): 103%
BRSK2 (Homo sapiens, UniProt Q8IWQ3): 98.7%
EPHB3 (Homo sapiens, UniProt P54753): 90%
TYRO3 (Homo sapiens, UniProt Q06418): 86.9%
MUSK (Homo sapiens, UniProt O15146): 99.3%
DYRK1A (Homo sapiens, UniProt Q13627): 105%
FLT1 (Homo sapiens, UniProt P17948): 96%

A few entries again (block 4):
JAK2 (Homo sapiens, UniProt O60674): 94.3%
RPS6KB2 (Homo sapiens, UniProt Q9UBS0): 108%
ERBB2 (Homo sapiens, UniProt P04626): 42.6%
PRKCZ (Homo sapiens, UniProt Q05513): 113%
PAK6 (Homo sapiens, UniProt Q9NQU5): 95.4%
